Experimental data collected from several papers.
A part holds a random share of what one study measured.

Sample 1
Target: Sal-like protein 4, full length isoform A (SALL4, Homo sapiens, UniProt Q9UJQ4, residues 1-1053)
Chain of UniProt Q9UJQ4 (whole entry, looked up): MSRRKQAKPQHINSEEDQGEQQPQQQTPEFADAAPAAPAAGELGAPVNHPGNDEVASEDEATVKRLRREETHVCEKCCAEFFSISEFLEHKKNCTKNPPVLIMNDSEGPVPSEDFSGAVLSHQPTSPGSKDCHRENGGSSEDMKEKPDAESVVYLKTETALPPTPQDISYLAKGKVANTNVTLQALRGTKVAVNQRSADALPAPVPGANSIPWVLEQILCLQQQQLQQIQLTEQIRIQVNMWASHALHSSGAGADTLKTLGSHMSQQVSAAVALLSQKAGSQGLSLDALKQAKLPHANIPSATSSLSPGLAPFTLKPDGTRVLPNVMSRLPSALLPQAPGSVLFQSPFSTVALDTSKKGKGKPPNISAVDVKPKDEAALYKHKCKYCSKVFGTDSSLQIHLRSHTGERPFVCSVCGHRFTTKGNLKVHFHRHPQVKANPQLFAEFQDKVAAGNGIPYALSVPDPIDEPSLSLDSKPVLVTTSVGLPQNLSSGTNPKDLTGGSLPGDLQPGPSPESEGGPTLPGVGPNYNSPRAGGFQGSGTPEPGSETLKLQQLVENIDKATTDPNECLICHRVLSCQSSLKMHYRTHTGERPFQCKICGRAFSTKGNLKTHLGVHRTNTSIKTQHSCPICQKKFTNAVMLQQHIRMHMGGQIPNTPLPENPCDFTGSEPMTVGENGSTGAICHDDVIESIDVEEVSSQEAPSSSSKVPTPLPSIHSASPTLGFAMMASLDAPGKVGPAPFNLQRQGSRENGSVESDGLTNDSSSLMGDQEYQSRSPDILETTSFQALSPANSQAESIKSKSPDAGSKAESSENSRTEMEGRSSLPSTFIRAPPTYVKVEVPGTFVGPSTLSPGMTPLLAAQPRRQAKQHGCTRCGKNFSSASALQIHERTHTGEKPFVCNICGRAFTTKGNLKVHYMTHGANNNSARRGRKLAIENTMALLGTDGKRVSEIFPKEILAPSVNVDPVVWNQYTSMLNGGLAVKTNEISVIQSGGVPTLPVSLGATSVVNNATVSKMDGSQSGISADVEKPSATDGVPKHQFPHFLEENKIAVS
Technique: universal PBM
Form: double-stranded DNA, one strand shown
Medium: in vitro
Tested at: 600 nM
Setting: 8-mer, flanks averaged, mean of replicates
Reading: higher = stronger binding
Endpoint: E-score
AGTAAATA: 0.368
GAACAGTA: 0.132
CTCGTTCC: -0.111
ACGAATAC: 0.155
ATCTGCAT: 0.172
ACCTCTGG: -0.0543
CCAGACAG: -0.255
CCCTACAA: 0.0812
ACGCTACC: -0.165
GGGGGTCA: -0.301
AGTTCAAA: 0.132
TAGGAGGA: -0.0238
CACGCAAA: -0.0139
CCTGAACC: -0.124
ACAGTTTA: 0.207
AACATGAA: 0.203
GATAAATC: 0.184
AGACAGTC: -0.182
AGATTAAA: 0.265
GCTCCCTA: -0.211

Sample 2
Target: Interferon regulatory factor 5, full length, phosphomimetic (IRF5, Homo sapiens, UniProt Q13568-2, residues 1-514, K96S/S451D/S453D/S456D/S462D)
Technique: protein-binding microarray
Form: double-stranded DNA, one strand shown
Medium: in vitro
Tested at: 250 nM
Setting: 60-bp whole probe
With: salmon DNA 0.4 mg/ml
Relative to: random background probes
Reading: higher = stronger binding
Endpoint: log fluorescence
Constant ends, left off below: GCCTAGCAC … GTCTTGATTCGCTTGACGCTGCTG
GACGGAGTGCTTTTCCTGACGTGCTAG: -0.213 z-score
GACGCTATCGGTTTCGGGACGTGCTAG: 9.09 z-score
GACGATTTCATTTCCGAGACGTGCTAG: 1.19 z-score
TTAGGACTGCTACAGCTTTAGTGCTAG: -0.437 z-score
GACGGTTTCGGTTTCGCGACGTGCTAG: 10.3 z-score
GTGACAGTTTTATTTTAGTTGGTGCTA: 0.883 z-score
GACGGACTGCTACTGCTCACGTGCTAG: -0.69 z-score
AACGAACTGAGTATCGAGACGTGCTAG: 2.09 z-score
GACGGACTGGACACCGGGGACGTGCTA: -0.775 z-score
GACGTTTCCGGTTTCGGGACGTGCTAG: 5.16 z-score
TCAATAATGGATATATAACTGTGCTAG: 0.487 z-score
TAAGGTTCCGGTTTCGGTTAGTGCTAG: 9.19 z-score
CCAGGGCTGCCAGCCTCCTCGTGCTAG: -0.999 z-score
GACGAACAGGGGTTTCGAGACGTGCTA: 1.27 z-score
TCAGCTTTAGTCATTCACACTGTGCTA: 0.102 z-score
TCAATTCTGCTTTGCAAACTGTGCTAG: 0.587 z-score
GACGGACCGGACACTGGGGACGTGCTA: -0.563 z-score
TTAGGTATCCTTTTCGTTTAGTGCTAG: 1.58 z-score
GACGGTTTCGGTTCCGCGACGTGCTAG: 9.67 z-score
TCACTTATAAATAGCACACTGTGCTAG: 0.561 z-score
TTAGATTTCAGTCTCCATTAGTGCTAG: 1.9 z-score

Sample 3
Target: Histone acetyltransferase KAT6A, both winged helices, GST fusion (KAT6A, Homo sapiens, UniProt Q92794, residues 1-181)
Technique: protein binding microarray
Form: double-stranded DNA, one strand shown
Medium: in vitro
Tested at: not given
Setting: 8-mer, flanks averaged, mean of 2 arrays, mostly near background
Relative to: not given
Reading: higher = stronger binding
Endpoint: E-score
Target sequence (chain): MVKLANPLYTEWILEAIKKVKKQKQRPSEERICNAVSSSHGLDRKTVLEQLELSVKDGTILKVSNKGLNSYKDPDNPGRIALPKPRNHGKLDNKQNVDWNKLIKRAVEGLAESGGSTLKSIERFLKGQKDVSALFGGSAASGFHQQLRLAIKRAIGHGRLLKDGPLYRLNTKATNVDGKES
AAGATAGA: -0.161
ATTAGCTC: -0.159
CAATCCAA: -0.00834
CGGTAGGA: 0.087
AGGAAAAC: -0.0127
CTCTACGA: -0.0322
CTGAGAAG: -0.174
GGTTCAAA: 0.15
GCAAGTAA: -0.169
CCACTGTC: -0.228
ACGAGAGA: -0.101
AGATCATA: 0.00369
AATGCACA: 0.00392
AGAGCAGA: -0.15
CAATCGGG: 0.1
CCATCTTC: -0.039
CATTAACC: -0.00788

Sample 4
Target: RING finger protein unkempt homolog, zinc fingers 1-6, GST-SBP tag (UNK, Homo sapiens, UniProt Q9C0B0, residues 30-357)
Technique: RNA Bind-n-Seq
Form: RNA
Medium: in vitro
Tested at: not given
Setting: RNA with constant flanks, ends assumed
Relative to: input RNA pool
Reading: higher = stronger binding
Endpoint: bound/input enrichment
Constant ends, left off below: GGGAGUUCUACAGUCCGACGAUC … CAACAGAGGAUUGAGCAUCA
Target sequence (chain): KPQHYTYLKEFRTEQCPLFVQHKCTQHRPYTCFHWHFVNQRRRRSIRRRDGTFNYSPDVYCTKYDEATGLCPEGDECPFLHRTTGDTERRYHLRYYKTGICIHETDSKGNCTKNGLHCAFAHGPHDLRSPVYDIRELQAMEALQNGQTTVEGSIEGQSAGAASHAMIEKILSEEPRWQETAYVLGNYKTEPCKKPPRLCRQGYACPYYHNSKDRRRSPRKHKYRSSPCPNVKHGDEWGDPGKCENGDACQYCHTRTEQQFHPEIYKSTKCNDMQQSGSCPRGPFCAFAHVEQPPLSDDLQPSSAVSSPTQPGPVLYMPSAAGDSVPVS
AGGAUUAAUCUUAAGGAUUGUAUAAUUCAUUAAAGCUGUGGUCUUUCCAUGUGGAGACUGACCGAAAAUAAUUUUGUCCCAAGUCUUAUUUGCUGACUUUUUCUGUCAUGAGUGAGAUUG: 0.123 ratio
AGUACGCGAGAGCGGCUUCUGUCUGCGCUGGAAGAUCUGGAGGUCUUGUCGAGGGAACUCACCGAAAUGCUUGCAAUUUCAAGAAAUCAGAAGCUAUUACAGCUGGAAGAGGAAAACCAG: 0.0898 ratio
CAUAUUUUAGAGGUAAUCAUGUCUUCUAGAUUACUUGUGUGCAUUUGAUUGGGCUUCUUGUUCCGGGUCCCUUUUAAAAUUAAUUCAUUAGAUUGAAAAAUGUAUUCUAUAUUUCUGAUA: 6.64 ratio
ACUGAAAAUAAAGAUAUUUACUGGAGAAACGUGAGAGAAAAGUUGUCAGUAGGAGAGAGCAUCCGUUUGGAUGAGUUCAAGUCCUUUUGCCAUUUUACAACGCAUUUGGAAGACUUUGCU: 0.307 ratio
UGGGCGAACCACGUCUUCCUCGGGUGCCGAUACCCUCAAAAAGUUAUGGAUAAAAUACUCCGUAUGGCUGAAGGCAUCAAAGUGACAGAUGCUCCAACCUAUACAACAAGAGAUGAACUG: 0.0554 ratio
CUGACUUUAUUUGGAAUUGCUGAUAAGAUCUCCUUUGACCUCAGCCUGGCUCGGGGCCCCGACUACUAUACAGGAGUGAUCUAUGAAGCAGUGCUGCUGCAGACCCCAACUCAGGCUGGG: 0.123 ratio

Sample 5
Target: RNA binding protein fox-1 homolog 2, RRM domain, GST-SBP tag (RBFOX2, Homo sapiens, UniProt O43251-10, residues 100-194)
Technique: RNA Bind-n-Seq
Form: RNA
Medium: in vitro
Tested at: 365 nM
Setting: natural RNA segment, single round, ends assumed
Relative to: no-protein control
Reading: higher = stronger binding
Endpoint: RBNS enrichment (R)
Constant ends, left off below: GGGAGUUCUACAGUCCGACGAUC … UGGAAUUCUCGGGUGCCAA
Construct (chain): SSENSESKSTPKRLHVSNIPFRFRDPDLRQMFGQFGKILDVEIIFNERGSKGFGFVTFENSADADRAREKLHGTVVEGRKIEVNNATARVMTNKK
UUGUUUCCAGACCAGCAUCCAGUGGCCAUCAGGUCUUGUGGCCCAAAGGCUAUGCUUGCCUCCGGCUGAGUGCCUGGGAUAGGCCUUUUCUAUGUCUCCCCAAGGCUGGG: 0.665
CUGGGCAAAAGUCUGAAGAUCUGAAAUAACUUUAUAUCAAACCAUUGAUCAAUAAACAGCUACUAAUAAGUGUUUGGUCCUGUUGAGCAGUAACUAAAAUAAGGGAAGAU: 0.318
AAGUGGGCACGUUCUCUCGGGGUGGCUCACAGCUUUGAACCUGCCAAAGGACCCCUCGACUGGCCACAGCCCAGCCCAGCCUGACGUGGAUGUGGCUGCCCAGGAAAAGA: 0.793
CUUCUGUGGAGUUUGGUUCAAAGACUGGUAUGGCAGAUAGAGGCUUGGAUGCAUUUUUCAUCAGGCUCAGUGGCUAGCAUCAGUGAACAUUCAGUUUCAGAGGGACAGUU: 0.986
CUAGACCCUCUUCCCACCUACUAUGGCAUUGCAUAUUAGUCUGUUGAGACAUUCAUUGUUGCUUGACUGACAUUUUGGUCUGGGUUUUCUUUUAAUAUUUUAUUUUAAUU: 0.57
CGUCAGCGGGCAUUAUUACCGUGUCUUGUAAAGGGUCGGUUUUGUUAUGCAACAUGCAGAAUGCUGUUUUUAGCCUUGUUUUACCAGAGUUGUUUUUUUUUUCAGUUAUU: 1.47
CUCUCCAGGUAUGCAGCUCAUAUGCUUGUGUCUGGACUUCCAUUUUCUUACUUCAGGGAGGGGACAGUGGAAAUGCUGCAGGUCUCUGUCUUGGACACUGCAGAGUGCUG: 0.858
ACAUCUCCACCCCACUUACCAAUAAAAGCUACCCUUUCCACCCAGUGGAAUGGGAUGGCAGAAAACCAACAGUGGCCCAGAUGGACCUCCAAGUCUGCUUUUCAGGUGUA: 0.294
CGUUAACUGCUGCAGCUCUCUUUGGGCCACCCUAGUGUUUGUGAUUCAUGCUUGAAGUAACCUUGCCGACAGUUGUGUGGCACAGACUCCCAGUACCAGCAAGGGGGCCG: 0.417
GUCAGGCAGGGAUGUUUUUAAAGAAAUGAAUUUGAUCAUGUGGAAUCUGUUAGCUCUUAAGGCUCUCCUCGAAUAUGGCAGCAUUUGGCCGCCACUCCCUACGCCCACCA: 0.682
CCACAGUUCCUGGCUGCCUUUCUCCUGUGUAUGUGUAAAUUCCUUAAUAAAUAUUGCAGGGAAGGACUGUUUGCUUGGCCAUUACUGUGCGUCACUCUUGGAGGAGGGUG: 2.81
UUCUAAUGAUGCAACAUAGCACAGAAUUACUGUGAUCAGUUUCUCAUCCAUACUGGGAAUUGUCUUGUUUUGAUACUGUGUUUUUCUGUGUUGCUUAAACUUCAAGAAUU: 0.784

Excerpt of the above (sample 1):
CCAGACAG: -0.255
AGATTAAA: 0.265
GAACAGTA: 0.132
GCTCCCTA: -0.211
ACGCTACC: -0.165
CTCGTTCC: -0.111
GGGGGTCA: -0.301
AACATGAA: 0.203
GATAAATC: 0.184
